# Measured values gathered from unrelated publications.
# Lines come from different studies, so protocols differ. “And” joins repeats or separate records; there may be more than shown. Numbers after ± are the reported error.
# blaNDM-1: Metallo-beta-lactamase type 2 (blaNDM-1, Klebsiella pneumoniae, UniProt C7C422)
# KLRK1 with MICA: NKG2-D type II integral membrane protein, with MICA (KLRK1, Homo sapiens, UniProt P26718)
# UniProt P26718, sequence (whole entry, looked up): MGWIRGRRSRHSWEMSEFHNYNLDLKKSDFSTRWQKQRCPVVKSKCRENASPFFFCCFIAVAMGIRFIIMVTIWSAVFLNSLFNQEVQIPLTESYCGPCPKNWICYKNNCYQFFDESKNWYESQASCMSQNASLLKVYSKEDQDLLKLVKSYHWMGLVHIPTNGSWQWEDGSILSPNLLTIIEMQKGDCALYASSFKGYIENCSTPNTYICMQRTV
# UniProt P05067, sequence (whole entry, looked up): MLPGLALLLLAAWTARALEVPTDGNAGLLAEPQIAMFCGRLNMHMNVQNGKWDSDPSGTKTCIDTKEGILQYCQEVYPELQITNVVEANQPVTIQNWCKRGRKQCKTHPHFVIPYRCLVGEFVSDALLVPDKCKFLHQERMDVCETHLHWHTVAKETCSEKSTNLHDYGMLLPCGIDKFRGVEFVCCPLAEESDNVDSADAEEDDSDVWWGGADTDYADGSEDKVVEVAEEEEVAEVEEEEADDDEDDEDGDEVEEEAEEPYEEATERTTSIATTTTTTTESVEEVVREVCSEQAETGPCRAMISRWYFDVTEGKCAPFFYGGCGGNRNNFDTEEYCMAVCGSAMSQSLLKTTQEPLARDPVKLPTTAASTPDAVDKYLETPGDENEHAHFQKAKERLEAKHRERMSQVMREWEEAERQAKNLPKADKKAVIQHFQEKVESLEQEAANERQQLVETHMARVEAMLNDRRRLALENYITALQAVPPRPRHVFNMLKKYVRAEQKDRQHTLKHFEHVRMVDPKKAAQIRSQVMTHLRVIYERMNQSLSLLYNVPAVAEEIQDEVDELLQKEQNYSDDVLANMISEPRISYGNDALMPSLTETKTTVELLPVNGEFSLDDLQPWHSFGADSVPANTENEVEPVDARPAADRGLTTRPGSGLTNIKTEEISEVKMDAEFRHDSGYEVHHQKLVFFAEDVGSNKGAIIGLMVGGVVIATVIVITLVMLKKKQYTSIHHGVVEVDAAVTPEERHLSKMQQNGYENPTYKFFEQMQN
# UniProt P53350, sequence (whole entry, looked up): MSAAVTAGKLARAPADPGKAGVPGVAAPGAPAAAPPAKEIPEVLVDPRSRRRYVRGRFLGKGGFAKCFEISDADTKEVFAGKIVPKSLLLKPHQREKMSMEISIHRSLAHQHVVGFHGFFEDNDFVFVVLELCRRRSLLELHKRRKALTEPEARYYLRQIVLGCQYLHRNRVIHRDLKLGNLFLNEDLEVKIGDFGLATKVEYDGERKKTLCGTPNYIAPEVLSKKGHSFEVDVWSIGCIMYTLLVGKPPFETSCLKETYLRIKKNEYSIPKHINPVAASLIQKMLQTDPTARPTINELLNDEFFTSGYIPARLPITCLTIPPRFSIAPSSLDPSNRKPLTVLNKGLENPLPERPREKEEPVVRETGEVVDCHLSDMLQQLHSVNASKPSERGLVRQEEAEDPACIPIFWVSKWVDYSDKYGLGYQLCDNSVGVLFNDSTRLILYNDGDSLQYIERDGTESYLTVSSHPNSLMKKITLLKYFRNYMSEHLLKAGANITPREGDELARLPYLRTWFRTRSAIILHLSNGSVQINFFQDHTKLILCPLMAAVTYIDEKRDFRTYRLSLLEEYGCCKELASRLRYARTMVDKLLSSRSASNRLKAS
# UniProt O15294, sequence (whole entry, looked up): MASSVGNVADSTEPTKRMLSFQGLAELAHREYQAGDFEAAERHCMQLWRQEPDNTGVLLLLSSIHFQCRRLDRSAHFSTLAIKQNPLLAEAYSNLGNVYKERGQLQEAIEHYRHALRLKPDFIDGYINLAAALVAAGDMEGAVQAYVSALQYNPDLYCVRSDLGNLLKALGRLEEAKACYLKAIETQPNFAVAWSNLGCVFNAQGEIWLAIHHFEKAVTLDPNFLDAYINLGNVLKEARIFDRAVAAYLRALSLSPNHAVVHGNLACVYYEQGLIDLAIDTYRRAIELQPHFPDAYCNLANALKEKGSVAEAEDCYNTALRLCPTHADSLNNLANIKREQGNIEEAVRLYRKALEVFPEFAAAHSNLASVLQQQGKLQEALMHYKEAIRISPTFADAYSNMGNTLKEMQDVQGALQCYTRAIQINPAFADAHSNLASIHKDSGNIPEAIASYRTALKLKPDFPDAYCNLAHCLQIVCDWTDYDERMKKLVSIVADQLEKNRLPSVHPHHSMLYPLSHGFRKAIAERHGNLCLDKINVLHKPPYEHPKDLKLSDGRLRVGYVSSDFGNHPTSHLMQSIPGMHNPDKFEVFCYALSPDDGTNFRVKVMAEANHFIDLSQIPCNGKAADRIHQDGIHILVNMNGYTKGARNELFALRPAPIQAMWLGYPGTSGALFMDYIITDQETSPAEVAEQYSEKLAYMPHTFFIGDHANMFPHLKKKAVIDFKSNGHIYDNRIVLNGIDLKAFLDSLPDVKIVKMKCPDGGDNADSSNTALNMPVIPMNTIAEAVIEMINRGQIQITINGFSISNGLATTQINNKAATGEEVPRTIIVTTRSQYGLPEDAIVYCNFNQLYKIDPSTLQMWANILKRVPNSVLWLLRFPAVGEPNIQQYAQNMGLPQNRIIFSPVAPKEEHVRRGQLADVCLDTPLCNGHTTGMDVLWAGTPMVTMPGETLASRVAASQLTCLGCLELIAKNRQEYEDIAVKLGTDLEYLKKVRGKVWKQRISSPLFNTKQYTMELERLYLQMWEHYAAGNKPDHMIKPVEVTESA
# UniProt Q9FIP9, sequence (whole entry, looked up): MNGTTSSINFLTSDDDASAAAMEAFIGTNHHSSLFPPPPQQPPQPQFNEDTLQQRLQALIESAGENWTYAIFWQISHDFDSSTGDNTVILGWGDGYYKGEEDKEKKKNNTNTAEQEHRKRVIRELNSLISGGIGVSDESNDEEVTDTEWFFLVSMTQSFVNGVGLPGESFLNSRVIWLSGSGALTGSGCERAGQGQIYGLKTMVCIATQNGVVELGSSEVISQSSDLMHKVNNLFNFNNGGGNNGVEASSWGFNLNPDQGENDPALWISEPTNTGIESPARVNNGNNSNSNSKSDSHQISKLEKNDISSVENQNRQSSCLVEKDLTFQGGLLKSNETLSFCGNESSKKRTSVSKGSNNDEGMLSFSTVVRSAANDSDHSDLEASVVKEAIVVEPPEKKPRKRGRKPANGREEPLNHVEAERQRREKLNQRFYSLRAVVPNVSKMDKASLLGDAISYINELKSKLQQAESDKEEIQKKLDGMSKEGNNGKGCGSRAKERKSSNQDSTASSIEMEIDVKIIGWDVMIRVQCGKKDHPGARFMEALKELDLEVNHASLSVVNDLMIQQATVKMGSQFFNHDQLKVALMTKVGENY
# UniProt P29122, sequence (whole entry, looked up): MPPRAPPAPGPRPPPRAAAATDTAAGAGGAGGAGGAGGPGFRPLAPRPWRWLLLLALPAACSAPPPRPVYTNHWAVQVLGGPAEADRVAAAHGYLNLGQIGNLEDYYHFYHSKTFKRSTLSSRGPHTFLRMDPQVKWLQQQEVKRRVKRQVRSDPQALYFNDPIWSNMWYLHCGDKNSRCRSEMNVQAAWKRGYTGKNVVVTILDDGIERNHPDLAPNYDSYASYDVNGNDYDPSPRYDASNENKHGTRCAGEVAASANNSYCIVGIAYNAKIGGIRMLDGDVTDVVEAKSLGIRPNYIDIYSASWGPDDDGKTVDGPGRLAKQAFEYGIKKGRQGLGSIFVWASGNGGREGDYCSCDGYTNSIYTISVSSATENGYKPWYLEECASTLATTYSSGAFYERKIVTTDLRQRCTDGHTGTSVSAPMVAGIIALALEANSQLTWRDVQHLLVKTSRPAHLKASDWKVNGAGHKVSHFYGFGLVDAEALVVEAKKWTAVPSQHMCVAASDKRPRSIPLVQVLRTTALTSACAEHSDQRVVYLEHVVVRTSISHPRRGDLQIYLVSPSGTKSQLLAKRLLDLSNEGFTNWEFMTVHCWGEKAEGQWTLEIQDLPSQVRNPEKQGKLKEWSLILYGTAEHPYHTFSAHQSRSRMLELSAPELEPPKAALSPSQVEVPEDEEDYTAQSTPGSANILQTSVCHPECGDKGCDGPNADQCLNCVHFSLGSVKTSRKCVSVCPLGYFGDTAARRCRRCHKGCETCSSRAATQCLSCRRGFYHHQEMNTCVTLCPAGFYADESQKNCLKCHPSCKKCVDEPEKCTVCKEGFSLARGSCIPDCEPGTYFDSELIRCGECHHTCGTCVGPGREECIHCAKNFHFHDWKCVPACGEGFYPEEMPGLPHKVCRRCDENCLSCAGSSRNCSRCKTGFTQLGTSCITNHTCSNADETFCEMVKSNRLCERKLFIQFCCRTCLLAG
# UniProt P50391, sequence (whole entry, looked up): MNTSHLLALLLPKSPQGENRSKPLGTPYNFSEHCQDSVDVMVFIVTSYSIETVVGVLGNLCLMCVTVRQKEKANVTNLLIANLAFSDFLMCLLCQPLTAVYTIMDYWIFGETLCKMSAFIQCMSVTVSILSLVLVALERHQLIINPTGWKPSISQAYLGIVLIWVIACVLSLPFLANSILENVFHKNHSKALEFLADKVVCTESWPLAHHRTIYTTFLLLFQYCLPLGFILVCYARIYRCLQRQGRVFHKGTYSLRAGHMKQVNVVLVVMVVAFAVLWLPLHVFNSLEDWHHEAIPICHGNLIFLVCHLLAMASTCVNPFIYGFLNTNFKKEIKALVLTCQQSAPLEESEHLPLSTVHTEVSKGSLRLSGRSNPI
# UniProt P47774, sequence (whole entry, looked up): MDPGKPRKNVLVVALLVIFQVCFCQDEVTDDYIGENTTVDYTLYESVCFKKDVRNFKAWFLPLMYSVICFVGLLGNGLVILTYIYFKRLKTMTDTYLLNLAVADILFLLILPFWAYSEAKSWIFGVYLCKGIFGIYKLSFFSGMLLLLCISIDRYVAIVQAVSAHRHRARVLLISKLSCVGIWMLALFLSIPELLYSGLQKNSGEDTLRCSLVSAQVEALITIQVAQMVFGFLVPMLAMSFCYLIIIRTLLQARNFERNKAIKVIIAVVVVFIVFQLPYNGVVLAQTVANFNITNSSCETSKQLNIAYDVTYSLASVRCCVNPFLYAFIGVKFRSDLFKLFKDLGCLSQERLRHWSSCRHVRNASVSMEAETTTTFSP
Compound,target,assay,system,conditions,IC50
C#CCCC(=O)N[C@H]1CSCc2ccc(cc2)CSCCNC(=O)[C@H](CCC(=O)O)NC(=O)[C@H](CCC(=O)O)NC(=O)[C@H](Cc2ccccc2)NC(=O)[C@@H]2CCCN2C(=O)[C@H](CC(N)=O)NC1=O,"EH domain-containing protein 1, EH domain (Homo sapiens, UniProt Q9H4M9)",,,,38.9 ± 7.6 µM
CC(=O)N(CCCCCCc1ccccc1)CC(=O)N[C@@H](CC(C)C)C(=O)N[C@@H](Cc1c[nH]cn1)C(=O)N[C@@H](C)C(=O)N[C@H](C(N)=O)[C@@H](C)CP(=O)(O)O,"Serine/threonine-protein kinase PLK1, polo-box (PLK1, Homo sapiens, UniProt P53350)","ligand displacement, FP",,,34 µM
CC(=O)N[C@@H](CCCNC(=N)N)C(=O)N[C@@H](Cc1ccc(O)cc1)C(=O)N[C@@H](CCCNC(=N)N)C(=O)N[C@@H](CC(C)C)C(=O)N[C@@H](CCCNC(=N)NC(=O)NCCCCN)C(=O)N[C@@H](Cc1ccc(O)cc1)C(N)=O,"NPY4R (Homo sapiens, UniProt P50391)","β-arrestin 2 recruitment, antagonist",HEK293T,added: 3 nM human pancreatic polypeptide,8.05 ± 0.12 µM
COc1ccc(-c2coc3cc(OCCN4CCCC[C@@H]4C)ccc3c2=O)cc1,"Ache (Rattus norvegicus, UniProt P37136)","enzyme activity, inhibitor, Ellman",,,21.2 µM
CN(CB(O)O)C(=S)[C@@H](N)CCC(=O)O,"DPP4 (Homo sapiens, UniProt P27487)","enzyme activity, inhibitor",,added: FP-biotin 1 µM,0.0017 µM
COc1cc2c(=O)cc(-c3ccccc3)oc2c2c1OC(C)(C)C=C2,"APP (Homo sapiens, UniProt P05067)","amyloid aggregation, inhibitor, fluorescence",,,85 µM and 85.1 µM
C[C@H](CS)C(=O)Nc1cc(-n2nccn2)cc2c1OCO2,blaNDM-1,"enzyme activity, inhibitor, fluorescence",,with preincubation,1.27 µM
NC[C@@H]1O[C@H](O[C@H]2[C@@H](O)[C@H](O[C@@H]3[C@@H](O)[C@H](N)C[C@H](N)[C@H]3O[C@H]3O[C@H](CN)[C@@H](O)[C@H](O)[C@H]3N)O[C@@H]2Cn2cc(COCCCCCCCCOCc3cn(C[C@H]4O[C@@H](O[C@@H]5[C@@H](O)[C@H](N)C[C@H](N)[C@H]5O[C@H]5O[C@H](CN)[C@@H](O)[C@H](O)[C@H]5N)[C@H](O)[C@@H]4O[C@H]4O[C@@H](CN)[C@@H](O)[C@H](O)[C@H]4N)nn3)nn2)[C@H](N)[C@@H](O)[C@@H]1O,HIV-1 TAR RNA,ethidium displacement,,pH 6.8,0.067 µM
CC[C@H](C)[C@@H]1NC(=O)[C@H](Cc2ccc(O)cc2)NC(=O)CSC[C@@H](C(=O)NCC(N)=O)NC(=O)[C@H](C(C)C)NC(=O)[C@H](CC(N)=O)NC(=O)[C@H](C(C)C)NC(=O)[C@H](CCCNC(=N)N)NC(=O)[C@H](C)NC(=O)[C@H](Cc2ccc(O)cc2)NC(=O)[C@H](Cc2ccc(O)cc2)NC(=O)CNC(=O)[C@@H]2CCCN2C(=O)[C@H](CCC(=O)O)NC(=O)[C@H](CC(C)C)NC(=O)[C@H]([C@@H](C)CC)NC(=O)[C@H](Cc2ccccc2)NC(=O)[C@H](Cc2ccc(O)cc2)NC1=O,"NNMT (Homo sapiens, UniProt P40261)","enzyme activity, inhibitor, mass spectrometry",,,1.11 µM
CC(C)C[C@H](NC(=O)[C@H](CCCNC(=N)N)NC(=O)[C@H](CCC(=O)O)NC(=O)[C@H](CCCCN)NC(=O)[C@H](CCCNC(=N)N)NC(=O)[C@H](CCCCN)NC(=O)[C@H](CCC(=O)O)NC(=O)[C@H](CC(C)C)NC(=O)[C@H](Cc1ccccc1)NC(=O)[C@H](CCCNC(=N)N)NC(=O)[C@H](C)NC(=O)[C@H](CC(C)C)NC(=O)[C@H](CO)NC(=O)[C@H](C)NC(=O)[C@H](CCCCN)NC(=O)[C@H](CCCNC(=N)N)NC(=O)[C@H](C)NC(=O)[C@H](CCC(N)=O)NC(=O)[C@@H]1CCCN1C(=O)[C@@H](NC(=O)[C@H](CO)NC(=O)c1ccc2c(c1)C(=O)OC21c2ccc(N(C)C)cc2Oc2cc(N(C)C)ccc21)C(C)C)C(=O)O,"Transcription factor MYC3 (MYC3, Arabidopsis thaliana, UniProt Q9FIP9)","JAZ9 peptide binding, inhibitor, AlphaScreen",,"pH 8.0, 25 °C, added: 50 nM biotin-JAZ9 peptide",37 ± 10 µM
C[C@H]1NC(=O)C[C@@H](C(=O)O)NC(=O)C[C@@H](C(=O)O)NC(=O)[C@H](Cc2ccccc2)N(C)C(=O)[C@H](CCCNC(=N)N)NC1=O,"Endochitinase B1 (Aspergillus fumigatus, UniProt Q873X9)","enzyme activity, inhibitor, fluorometric",,"10 min, pH 5.5, 37 °C, added: 20 µM 4-MU-chitobiose",> 1000 µM
CNC(=O)C(NC(=O)c1ccccc1-c1ccc(C(F)(F)F)cc1)c1cccc(C(F)(F)F)c1 (stereo not shown),KLRK1 with MICA,"ligand binding, inhibitor, TR-FRET",HEK293 expressing NKG2D and DAP10,added: MICA-Alexa647,7.4 ± 1.5 µM
N=C(Nc1ccc(OCCCCCOc2ccc(NC(=N)c3ccccc3)cc2)cc1)c1ccccc1,"KCNJ2 (Homo sapiens, UniProt P63252)","ion current, inhibitor",,,1.3 µM
CN(C)C(=O)[C@@H](NC(=O)c1cc(-c2ccnn2C)ccc1-c1ccc(C(F)(F)F)cc1)c1cccc(C(F)(F)F)c1,KLRK1 with MICA,"ligand binding, inhibitor, TR-FRET",HEK293 expressing NKG2D and DAP10,added: MICA-Alexa647,0.3 ± 0.1 µM
COc1c(/C=C/C(=O)c2ccc(O)cc2)ccc(O)c1O,"PDE4D (Homo sapiens, UniProt Q08499)","enzyme activity, inhibitor, radiometric",,,5.73 µM
CC[C@H](C)[C@H](NC(=O)[C@H](Cc1ccccc1)NC(=O)[C@@H](NC(=O)[C@@H](NC(=O)[C@H](CO)NC(=O)[C@H](CO)NC(=O)[C@@H](NC(=O)[C@H](CCSC)NC(=O)[C@@H](N)CCC(N)=O)C(C)C)C(C)C)[C@@H](C)O)C(=O)O,"HLA class I histocompatibility antigen, A alpha chain, allele A*02:01 (Homo sapiens, UniProt P04439)","binding, competitive radioligand binding",,"48 h, 37 °C, added: radiolabelled FLPSDYFPSV 1 nM",< 0.2 µM
CC(C)C(=O)Nc1ccccc1-c1nn[nH]n1,blaNDM-1,"enzyme activity, inhibitor, fluorescence",,with preincubation,> 100 µM
CCCCCCCCCNC(=O)CC(=O)c1ccccc1,"lasR (Pseudomonas aeruginosa, UniProt P25084)","reporter gene, antagonist","Escherichia coli, JLD271 with LasR plasmid",added: OdDHL 2 nM,2.3 µM
COc1ccc(-c2ccc(OC)c(NC(=O)[C@H](C)CS)c2)nn1,"Metallo-beta-lactamase type 2 (Serratia marcescens, UniProt P52699)",inhibitor,,"10 min preincubation, added: FC5 substrate",1.56 µM
CSc1nc(N)nc2[nH]cnc12,"replicase polyprotein 1ab, papain-like protease 2 (Porcine epidemic diarrhea virus, UniProt V5W8W2)","enzyme activity, inhibitor",,,> 200 µM
CC[N+](CC)(CC)CC,"Potassium channel protein kcv (A250R, Paramecium bursaria Chlorella virus 1, UniProt Q84568, L70Y)",,,,830 ± 170 µM
O=C(O)CC(O)C(=O)O (stereo not shown),"PPCA1 (Flaveria pringlei, UniProt Q01647, R885G)","enzyme activity, inhibitor",,added: PEP at 2 × Km,8700 µM
CCCCCCCCCC(=O)N[C@@H](CCCNC(=N)N)C(=O)N[C@H](C(=O)N[C@@H](CCCCN)C(=O)N[C@@H](CCCNC(=N)N)C(=O)CCl)C(C)C,"Proprotein convertase subtilisin/kexin type 6 (Homo sapiens, UniProt P29122)","enzyme activity, inhibitor",,,0.000631 µM
c1cc2c(s1)CCOC21CCN(Cc2ccc3c(c2)OCCO3)CC1,"CYP2C19 (Homo sapiens, UniProt P33261)",inhibitor,,,20 µM
CC[C@H](C)[C@H](NC(=O)[C@H](CC(C)C)NC(=O)[C@@H]1CCCN1C(=O)[C@H](CO)NC(=O)[C@@H](N)CC(C)C)C(=O)N[C@@H](Cc1ccccc1)C(=O)N[C@H](C(=O)N[C@H](C(=O)N[C@H](C(=O)N1CCC[C@H]1C(=O)N[C@@H](CC(=O)O)C(=O)N[C@H](C(=O)O)[C@@H](C)O)[C@@H](C)O)[C@@H](C)O)C(C)C,"C-C chemokine receptor type 7, with CCL21 (Ccr7, Mus musculus, UniProt P47774)","ligand binding, inhibitor, flow cytometry",B16 expressing CCR7,"4 °C, added: CCL21",256 ± 36.7 µM
CCn1nc(-c2cccs2)nc2c(=O)n(C)c(=O)nc1-2,"TPR (Trypanosoma brucei brucei, UniProt P39051)","inhibitor, DTNB-coupled colourimetric",,added: substrate at Km,12.8 µM
CC(C)(C)c1ccc(NC(=O)NCCC[C@H](CNCc2ccccc2)C[C@H]2O[C@@H](n3cnc4c(N)ncnc43)[C@H](O)[C@@H]2O)cc1,"BCDIN3D (Homo sapiens, UniProt Q7Z5W3)","enzyme activity, inhibitor, radiometric",,,> 50 µM
O=C(COc1ccc2c(c1O)C(=O)c1ccccc1C2=O)c1ccccc1,"Gag-Pol polyprotein, reverse transcriptase RNase H (gag-pol, Human immunodeficiency virus 1, UniProt P03366)",RNase H activity,,wild-type reverse transcriptase,39 ± 6 µM
N#Cc1cn([C@@H]2O[C@H](CSCC[C@H](N)C(=O)O)[C@@H](O)[C@H]2O)c2ncnc(N)c12,"Actin-histidine N-methyltransferase (SETD3, Homo sapiens, UniProt Q86TU7)","enzyme activity, inhibitor, radiometric",,,> 50 µM
CN[C@@H](C)C(=O)N[C@H](C(=O)N1C[C@@H](NC(=O)CCCCOCc2cn(CCNC(=O)CN(Cc3cccs3)C(=O)[C@H](NS(=O)(=O)c3cc4ccc(O)nc4cc3Cl)c3ccccc3OC)nn2)C[C@H]1C(=O)N[C@@H]1CCCc2ccccc21)C1CCCCC1,"OGT (Homo sapiens, UniProt O15294)","enzyme activity, inhibitor, fluorescence",,,1.92 µM
CC[C@H](C)[C@H](NC(=O)[C@H](C)N)C(=O)N[C@@H](CCCNC(=N)N)C(=O)N[C@@H](Cc1c[nH]cn1)C(=O)N[C@@H](CCCNC(=N)N)C(=O)N[C@H](C(=O)N[C@@H](CC(N)=O)C(=O)N[C@@H](CC(N)=O)C(=O)N[C@@H](CO)C(=O)N[C@H](C(=O)N[C@@H](Cc1c[nH]c2ccccc12)C(=O)N[C@@H](CCCNC(=N)N)C(=O)N[C@@H](CC(=O)O)C(=O)N[C@H](C(=O)N[C@@H](Cc1ccccc1)C(=O)N[C@@H](CC(C)C)C(=O)N[C@@H](CCCCN)C(=O)N[C@@H](CCCNC(=N)N)C(=O)N[C@@H](CCCCN)C(=O)O)[C@@H](C)CC)[C@@H](C)CC)[C@@H](C)CC,"Sensor histidine kinase ComD (Streptococcus gordonii, UniProt O33646)",,,,> 1 µM
COC(=O)C1CN1S(=O)(=O)c1ccc(Cl)cc1 (stereo not shown),"PDIA3 (Homo sapiens, UniProt P30101)","enzyme activity, inhibitor, absorbance",,pH 7.6,> 200 µM
CC(C)C[C@H](NC(=O)[C@H](C)NC(=O)[C@H](CO)NC(=O)[C@H](CC(=O)O)NC(=O)[C@H](CCC(=O)O)NC(=O)[C@@H]1CCCN1C(=O)[C@H](CC(=O)O)NC(=O)[C@@H](N)CCC(=O)O)C(=O)N[C@@H](CC(C)C)C(=O)N[C@@H](CCC(=O)O)C(=O)N[C@@H](CC(=O)O)C(=O)N1CCC[C@H]1C(=O)O,"HLA-DRA/HLA-DRB3 (Homo sapiens, UniProt P01903+P79483)","binding, competition binding",purified HLA-DR,"48 h, added: radiolabelled probe peptide 0.1-1 nM",> 5 µM
CC[C@@H]1C(=O)N(C)c2cnc(Oc3ccc(C(=O)NCCCC[C@H](NC(=O)COCCOCCNC(=O)COCCOCCNC(=O)COCCOCCNC(=O)COCCOCCNC(=O)[C@@H](NC(=O)[C@H](CO)NC(=O)[C@H](Cc4cncn4CCCCCCCCc4ccccc4)NC(=O)[C@H](CC(C)C)NC(=O)[C@@H]4CCCN4C(C)=O)[C@@H](C)OP(=O)(O)O)C(N)=O)cc3OC)nc2N1CC(C)C,"PLK1 (Homo sapiens, UniProt P53350)","enzyme activity, inhibitor, FRET",,,> 10 µM

# Repeated from above:
Compound,target,assay,system,conditions,IC50
COc1ccc(-c2coc3cc(OCCN4CCCC[C@@H]4C)ccc3c2=O)cc1,"Ache (Rattus norvegicus, UniProt P37136)","enzyme activity, inhibitor, Ellman",,,21.2 µM
CN(CB(O)O)C(=S)[C@@H](N)CCC(=O)O,"DPP4 (Homo sapiens, UniProt P27487)","enzyme activity, inhibitor",,added: FP-biotin 1 µM,0.0017 µM
COc1cc2c(=O)cc(-c3ccccc3)oc2c2c1OC(C)(C)C=C2,"APP (Homo sapiens, UniProt P05067)","amyloid aggregation, inhibitor, fluorescence",,,85 µM and 85.1 µM
C[C@H](CS)C(=O)Nc1cc(-n2nccn2)cc2c1OCO2,blaNDM-1,"enzyme activity, inhibitor, fluorescence",,with preincubation,1.27 µM
NC[C@@H]1O[C@H](O[C@H]2[C@@H](O)[C@H](O[C@@H]3[C@@H](O)[C@H](N)C[C@H](N)[C@H]3O[C@H]3O[C@H](CN)[C@@H](O)[C@H](O)[C@H]3N)O[C@@H]2Cn2cc(COCCCCCCCCOCc3cn(C[C@H]4O[C@@H](O[C@@H]5[C@@H](O)[C@H](N)C[C@H](N)[C@H]5O[C@H]5O[C@H](CN)[C@@H](O)[C@H](O)[C@H]5N)[C@H](O)[C@@H]4O[C@H]4O[C@@H](CN)[C@@H](O)[C@H](O)[C@H]4N)nn3)nn2)[C@H](N)[C@@H](O)[C@@H]1O,HIV-1 TAR RNA,ethidium displacement,,pH 6.8,0.067 µM
